Published values from different studies.
A part holds a random share of what one study measured.

Series 1 — technique: universal PBM; form: double-stranded DNA, one strand shown; matrix: in vitro; tested at: not given; reading: higher = stronger binding; quantity: E-score
Target: Sal-like protein 4, full length isoform B (SALL4, Homo sapiens, UniProt Q9UJQ4-2, residues 1-616)
Notes: 8-mer, flanks averaged, mean of replicates
Target sequence (chain): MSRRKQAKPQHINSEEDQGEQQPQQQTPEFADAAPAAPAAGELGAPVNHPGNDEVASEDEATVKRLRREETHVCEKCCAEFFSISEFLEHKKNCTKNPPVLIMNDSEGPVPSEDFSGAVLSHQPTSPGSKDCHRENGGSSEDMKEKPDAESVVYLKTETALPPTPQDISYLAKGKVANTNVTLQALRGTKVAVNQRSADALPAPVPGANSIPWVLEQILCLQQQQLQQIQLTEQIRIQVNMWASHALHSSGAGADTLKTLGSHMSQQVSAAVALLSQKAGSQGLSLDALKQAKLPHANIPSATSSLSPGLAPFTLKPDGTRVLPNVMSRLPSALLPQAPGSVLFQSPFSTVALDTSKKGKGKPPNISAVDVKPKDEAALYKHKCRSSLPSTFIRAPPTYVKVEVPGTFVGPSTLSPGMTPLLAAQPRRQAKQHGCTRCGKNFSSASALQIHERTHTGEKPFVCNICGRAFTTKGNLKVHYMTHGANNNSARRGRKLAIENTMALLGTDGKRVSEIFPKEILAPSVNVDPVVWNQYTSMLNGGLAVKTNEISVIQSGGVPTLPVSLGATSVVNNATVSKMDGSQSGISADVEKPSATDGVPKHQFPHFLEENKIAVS
CACTGTTA: 0.0346
AGACGTGC: -0.0403
CCGTCAAG: -0.247
ATGGGAAG: 0.0163
ATTCCATG: -0.106
CTTGTAGA: -0.0667
ACAGTTAT: 0.294
TCATACGA: 0.189
GGAGATGA: -0.00521

Series 2 — technique: RNA Bind-n-Seq; form: RNA; matrix: in vitro; tested at: 1 µM; notes: whole 134-nt RNA, ends assumed; with: 150 mM KCl; baseline: input library; reading: higher = stronger binding; quantity: log2 enrichment
Target: Ras GTPase-activating protein-binding protein 1, RRM domain (G3BP1, Homo sapiens, UniProt Q13283)
UniProt Q13283, sequence (whole entry, looked up): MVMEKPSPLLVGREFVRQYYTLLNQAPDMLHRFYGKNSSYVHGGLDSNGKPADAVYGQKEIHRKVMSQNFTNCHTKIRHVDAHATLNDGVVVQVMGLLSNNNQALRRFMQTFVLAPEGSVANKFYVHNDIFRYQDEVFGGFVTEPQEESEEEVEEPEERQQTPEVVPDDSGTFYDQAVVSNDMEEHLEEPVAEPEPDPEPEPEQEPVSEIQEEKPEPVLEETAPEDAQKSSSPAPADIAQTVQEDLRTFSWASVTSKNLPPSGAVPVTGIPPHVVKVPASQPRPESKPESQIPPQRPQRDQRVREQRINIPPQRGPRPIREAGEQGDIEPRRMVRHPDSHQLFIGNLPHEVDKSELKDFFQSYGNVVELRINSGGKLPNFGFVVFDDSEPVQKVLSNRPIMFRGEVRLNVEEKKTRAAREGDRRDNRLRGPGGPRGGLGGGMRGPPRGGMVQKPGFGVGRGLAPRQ
Constant ends, left off below: GGGAGUUCUACAGUCCGACGAUC … UGGAAUUCUCGGGUGUCAAGG
CAAGUCCUGUGCUACACAUCGUAUGUACCGAAUCGGUUUGGUUUGGUUUUUUUGGAAAGUAUUAUGUUACGCCGUUCGGAUCUGCACUUC: -0.289
UAACUUUAGAGGAGGAUCUGAUGGAUAUGGCACUGGACGUGGAUUUGGGGAUGGCUAUAAUGGGUAUGGAGGAGGACCUGGAGGUGGCAA: -0.543
AAGUCCUGUGCUACACAUCGUAUGUACCGAAUCGGGUUUUGGUUUUGGGGUUUUGGAAAGUAUUAUGUUACGCCGUUCGGAUCUGCACUU: -0.222
AAGUCCUGUGCUACACAUCGUAUGUACCGAAUCGGUUUUGGGGUUUUGGUUUUGGGAAAGUAUUAUGUUACGCCGUUCGGAUCUGCACUU: -0.197
AGUCCUGUGCUACACAUCGUAUGUACCGAAUCGGGGAAAAAGGGGUGGGGUUUGGGGAAAGUAUUAUGUUACGCCGUUCGGAUCUGCACU: 0.646
UAACUUUAGAGGAGGAUCUGAUGGAUAUGGCAGUGGACGUGGAUUUGGGGAUGGCUAUGAUGGGUAUGGAGGAGGACCUGGAGGUGGCAA: -0.412
AGUAGCUAUGGUCAACAAAGCAGCUAUGGGCAGCAGCCUCCCACUAGUUACCCACCCCAAACUGGAUCCUACAGCCAAGCUCCAAGUCAA: 0.208
AGUCCUGUGCUACACAUCGUAUGUACCGAAUCGGGAAAAGGGGAAAAGGGAAAAGGGAAAGUAUUAUGUUACGCCGUUCGGAUCUGCACU: 0.528

Series 3 — technique: protein binding microarray; form: double-stranded DNA, one strand shown; matrix: in vitro; tested at: not given; baseline: not given; reading: higher = stronger binding; quantity: E-score
Target: Histone acetyltransferase KAT6A, both winged helices, GST fusion (KAT6A, Homo sapiens, UniProt Q92794, residues 1-181)
Notes: 8-mer, flanks averaged, mean of 2 arrays, mostly near background
Construct (chain): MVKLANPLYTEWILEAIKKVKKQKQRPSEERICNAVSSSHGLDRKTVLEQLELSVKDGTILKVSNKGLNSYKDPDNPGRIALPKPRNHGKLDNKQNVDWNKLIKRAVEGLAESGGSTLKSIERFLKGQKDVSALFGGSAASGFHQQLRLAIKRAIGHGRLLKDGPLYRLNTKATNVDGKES
GGTCCTTA: -0.0285
CCGCGATA: 0.256
CACGAGAG: -0.0837
AAAGTGCC: -0.135
GTCAGTAA: -0.044
ATGGCAAC: 0.0632
CCAAACGC: -0.0619

Single results of other studies
PhoQ, residues 284 288 289 292 302 303 NLGVHL — fold induction (PhoP, residues 12 14 15 18 19 VHTVL (Escherichia coli, UniProt P23836); Sort-seq, measured: YFP reporter; E. coli; PhoQ-PhoP variant library, with: 10 µM Mg2+; baseline: high Mg2+ state, higher = stronger signaling): 0.582

For quick reference, copied from above (single results of other studies):
PhoQ, residues 284 288 289 292 302 303 NLGVHL — fold induction (PhoP, residues 12 14 15 18 19 VHTVL (Escherichia coli, UniProt P23836); Sort-seq, measured: YFP reporter; E. coli; PhoQ-PhoP variant library, with: 10 µM Mg2+; baseline: high Mg2+ state, higher = stronger signaling): 0.582
